# Experimental data of several laboratories.
# Compare with care: the assays were run in different laboratories. Numbers after ± are the reported error.
Molecule,organism,test,test system,setting,IC50
CCCCCCOc1c(OC)cc(NC(C)CCCNC(=O)C(N)CCCCN)c2nc(C(C)(C)C)ccc12 (centres unmarked),Staphylococcus aureus,bacterial growth,MRSA ATCC 33591,,> 20 µg/mL
meglumine antimoniate,Leishmania braziliensis,,,intracellular amastigotes,30.4 ± 6.1 µM
CCCCOc1c(OC)cc(NC(C)CCCN)c2nc(C(C)(C)C)cc(C)c12 (centres unmarked),Staphylococcus aureus,microbial growth,ATCC33591 MRSA,drug-resistant strain,2.96 µg/mL
O=Cc1cn(Cc2ccc(F)cc2)c2ccc([N+](=O)[O-])cc12,Trypanosoma brucei gambiense,,"trypomastigotes, IL1922",,22.4 ± 5.03 µM
C[C@@]1(F)[C@H](O)[C@@H](CO)O[C@H]1n1ccc(N)nc1=O,Norwalk virus,"viral replication, inhibitor",RAW264.7,,33.9 µM
C[C@@H]1CC[C@H]2[C@@H](C)C(=O)O[C@@H]3O[C@@]4(C)CC[C@@H]1[C@]32OO4,Leishmania tarentolae,"viability, resazurin","promastigotes, YEM/PBS","48 h, 26 °C, with: 10% FCS",3.23 ± 1.92 µM
CCOc1ccc(Nc2c3c(nc4ccccc24)CCC3)cc1,Leishmania donovani,,"DD8 resistant line, intracellular amastigotes",,5.35 ± 0.18 µM
CCCCCCOc1c(OC)cc(NC(C)CCCNC(=O)C(N)CCCNC(=N)N)c2nc(C(C)(C)C)ccc12 (centres unmarked),Staphylococcus aureus,microbial growth,ATCC33591 MRSA,drug-resistant strain,8.95 µg/mL
Nc1cccc(S(N)(=O)=O)c1,Candida albicans,"biofilm formation, XTT",SC5314,"24 h, 37 °C",3.45 µM
CCCCCCCCNC(C)C(O)c1ccc(SC(C)C)cc1 (centres unmarked),Plasmodium falciparum,"parasite proliferation, SYBR Green",3D7,72 h,1.7 µM
C[C@@H]1O[C@@H](O[C@H]2C[C@@H](O)[C@]3(CO)[C@H]4[C@H](O)C[C@]5(C)[C@@H](C6=CC(=O)OC6)CC[C@]5(O)[C@@H]4CC[C@]3(O)C2)[C@H](O)[C@H](O)[C@H]1O,transmissible gastroenteritis virus,"viral replication, immunofluorescence",ST cells,"6 h post-infection, pretreated 1 h",0.147 ± 0.028 µM
CC(O)CC(C)(C)N.Oc1c(Cl)c(Cl)c(Cl)c(Cl)c1Cl,Candida albicans,"biofilm formation, XTT",SC5314,"24 h, 37 °C",3.29 µM
O=C(O)COc1c2c(c(OCC(=O)O)c3c1C1CC3c3cc4c(cc31)C1CC4c3ccccc31)C1CC2c2cc3c(cc21)C1CC3c2ccccc21,measles virus,"viral infection, flow cytometry","A549, vaccine strain GFP","2 days, virus pre-incubated 30 min 37 °C",70.4 µM
CCCN(CCC)C(=S)NN=Cc1ccccn1.[Cl][Cu][Cl],Candida albicans,"biofilm formation, XTT",SC5314,"24 h, 37 °C",0.549 µM
CCCCCCC(C)CC1=C(O)C(=O)c2c(C)cccc2C1=O (centres unmarked),Plasmodium berghei,"parasite growth, luciferase",Huh-7,"48 h, liver stage",0.246 µM
O=C(Cn1cncn1)c1ccc(-c2ccccc2)cc1,Trypanosoma cruzi,parasite growth,Tulahuen C4 amastigotes,,4 to 60 µM
Cc1ccc(Cn2cc(C=O)c3cc([N+](=O)[O-])ccc32)cc1,Trypanosoma brucei gambiense,,"trypomastigotes, IL1922",,> 85 µM
COc1cc2c3c(c4cc(OC)c(OC)cc4c2cc1OC)CN1CCC[C@@H]1C3,transmissible gastroenteritis virus,"viral replication, immunofluorescence",ST cells,"6 h post-infection, pretreated 1 h",0.311 ± 0.07 µM
C[C@@]1(O)[C@H](O)[C@@H](CO)O[C@H]1n1ccc(N)nc1=O,Norwalk virus,"viral replication, inhibitor",RAW264.7,,15.7 µM
CCCCCCC(F)(P(=O)(O)O)P(=O)(O)O,Trypanosoma cruzi,,"Vero cells, intracellular amastigotes",day 3 post-infection,> 10 µM
CC(=NNC(=S)N1CCC1)c1ccccn1,Candida albicans,"biofilm formation, XTT",SC5314,"24 h, 37 °C",2.3 µM
CCCCOc1c(OC)cc(NC(C)CCCN)c2nc(C(C)(C)C)ccc12 (centres unmarked),Staphylococcus aureus,bacterial growth,MRSA ATCC 33591,,> 20 µg/mL
Nc1nc(O)c2ncn(COC(CO)CO)c2n1,Human betaherpesvirus 5,"viral replication, absorbance",human Fibroblast,72 h,> 100 µM
guanidine hydrochloride,coxsackievirus B3,cytopathic effect,"HeLa, 97927 I1207T",48 h,725 µM
COc1ccc([C@@H]2CC(=O)c3c(O)cc(O)cc3O2)cc1O,Betacoronavirus 1,viral replication,"HRT-18, OC43",24 h,31.5 µM
CCCCCCC(C)CC1=C(O)C(=O)c2ccccc2C1=O (centres unmarked),Plasmodium berghei,"parasite growth, luciferase",Huh-7,"48 h, liver stage",0.0962 µM
COc1c(O)cc2oc(-c3ccccc3)cc(=O)c2c1O,Betacoronavirus 1,viral replication,"HRT-18, OC43",24 h,18.7 µM
O=c1cc(-c2ccccc2)oc2cc(O)c(O)c(O)c12,human cytomegalovirus,"viral replication, titre reduction","HEL fibroblasts, Towne",,1.2 ± 0.8 µM
CCCCCCCCOc1c(OC)cc(NC(C)CCCNC(=O)C2CCCN2)c2nc(C(C)(C)C)ccc12 (centres unmarked),Staphylococcus aureus,microbial growth,ATCC33591 MRSA,drug-resistant strain,5.49 µg/mL
O=C(O)[C@H]1O[C@@H](Oc2cc3oc(-c4ccccc4)cc(=O)c3c(O)c2O)[C@H](O)[C@@H](O)[C@@H]1O,human cytomegalovirus,"viral replication, titre reduction","HEL fibroblasts, Towne",,15 ± 0.5 µM
CCCCCOc1c(OC)cc(NC(C)CCCNC(=O)C(N)CCCNC(=N)N)c2nc(C(C)(C)C)ccc12 (centres unmarked),Staphylococcus aureus,microbial growth,ATCC33591 MRSA,drug-resistant strain,7.27 µg/mL
O=P(O)(O)C(F)P(=O)(O)O,Trypanosoma cruzi,,"Vero cells, intracellular amastigotes",day 3 post-infection,> 10 µM
O=c1c(O)c(-c2ccccc2)oc2cc(O)cc(O)c12,Human betaherpesvirus 5,"viral replication, absorbance",human Fibroblast,72 h,> 40 µM
O=C(NC(=O)c1c(F)cccc1F)Nc1ccc(Cl)cc1,Lucilia cuprina,larval weight gain,"LS strain, larvae on impregnated cotton wool",24 h,0.23 µg
CCCCCOc1c(OC)cc(NC(C)CCCNC(=O)C(N)CCCCN)c2nc(C(C)(C)C)ccc12 (centres unmarked),Staphylococcus aureus,bacterial growth,MRSA ATCC 33591,,> 20 µg/mL
N#C[C@]1(CO)O[C@@H](n2cnc3c(N)nc(N)nc32)C[C@@H]1O,Hepatitis B virus,Southern blot,"Huh-7 transfected, entecavir-resistant L180M/S202G/M204V",,0.0696 µM
CC(CCCCCC(F)(F)F)CC1=C(O)C(=O)c2ccccc2C1=O (centres unmarked),Plasmodium berghei,"parasite growth, luciferase",Huh-7,"48 h, liver stage",0.0171 µM
CC[C@]1(CO)O[C@@H](n2cnc3c(=O)[nH]c(N)nc32)C[C@@H]1O,Human immunodeficiency virus 1,"cytopathic effect, MTT",MT4,,0.0056 µM
CCCCCOc1c(OC)cc(NC(C)CCCN)c2nc(C(C)(C)C)cc(C)c12 (centres unmarked),Staphylococcus aureus,microbial growth,ATCC33591 MRSA,drug-resistant strain,10.5 µg/mL
CC(C)[C@@H]1NC(=O)[C@H](C)OC(=O)[C@@H](C(C)C)NC(=O)[C@@H](C(C)C)OC(=O)[C@H](C(C)C)NC(=O)[C@H](C)OC(=O)[C@@H](C(C)C)NC(=O)[C@@H](C(C)C)OC(=O)[C@H](C(C)C)NC(=O)[C@H](C)OC(=O)[C@@H](C(C)C)NC(=O)[C@@H](C(C)C)OC1=O,Candida albicans,"biofilm formation, XTT",SC5314,"24 h, 37 °C",0.363 µM
O=c1c(O)c(-c2ccc(O)c(O)c2)oc2cc(O)cc(O)c12,human cytomegalovirus,"viral replication, titre reduction","HEL fibroblasts, Towne",,3.2 ± 0.8 µM
CC(C)C12C=CC(C)(CC1)OO2 (centres unmarked),Leishmania tarentolae,"viability, resazurin","promastigotes, Schneider's medium","48 h, 26 °C, with: 6 µM hemin",40.9 ± 10 µM
CC[C@]1(CO)O[C@@H](n2cnc3c(N)nc(N)nc32)C[C@@H]1O,Human immunodeficiency virus 1,"cytopathic effect, MTT",MT4,,0.0089 µM
CC[C@H](CO)Nc1nc(NCc2ccccc2O)c2ncn(C(C)C)c2n1,Human alphaherpesvirus 1,"viral replication, plaque reduction","HFFF, 17 thymidine kinase-deleted, GFP",3 days,5.3 ± 0.9 µM
N=C(N)NCCCCCCCCCCNC(=N)N,Plasmodium falciparum,"parasite proliferation, SYBR Green",3D7,72 h,0.027 µM
CCCCCCCCCC(F)(P(=O)(O)O)P(=O)(O)O,Trypanosoma cruzi,,"Vero cells, intracellular amastigotes",day 3 post-infection,> 10 µM
O=C1C[C@@H](c2ccc(O)cc2)Oc2cc(O)cc(O)c21,Human betaherpesvirus 5,"viral replication, absorbance",human Fibroblast,72 h,32 µM

# Repeated from above:
Molecule,organism,test,test system,setting,IC50
O=C(O)[C@H]1O[C@@H](Oc2cc3oc(-c4ccccc4)cc(=O)c3c(O)c2O)[C@H](O)[C@@H](O)[C@@H]1O,human cytomegalovirus,"viral replication, titre reduction","HEL fibroblasts, Towne",,15 ± 0.5 µM
CCCCCOc1c(OC)cc(NC(C)CCCNC(=O)C(N)CCCNC(=N)N)c2nc(C(C)(C)C)ccc12 (centres unmarked),Staphylococcus aureus,microbial growth,ATCC33591 MRSA,drug-resistant strain,7.27 µg/mL
O=P(O)(O)C(F)P(=O)(O)O,Trypanosoma cruzi,,"Vero cells, intracellular amastigotes",day 3 post-infection,> 10 µM
O=c1c(O)c(-c2ccccc2)oc2cc(O)cc(O)c12,Human betaherpesvirus 5,"viral replication, absorbance",human Fibroblast,72 h,> 40 µM
O=C(NC(=O)c1c(F)cccc1F)Nc1ccc(Cl)cc1,Lucilia cuprina,larval weight gain,"LS strain, larvae on impregnated cotton wool",24 h,0.23 µg
